Assay results collected from several papers.
Each line is one published result; not all experiments were run side by side. ± gives the spread as reported.

| SMILES | cell line | test | conditions | scale | endpoint | value |
| --- | --- | --- | --- | --- | --- | --- |
| COc1cc(CNC(=O)C[C@H](C)CCC=C(C)C)ccc1OCc1cn(-c2ccc(Cl)c(Cl)c2)nn1 | M14 melanoma cells | SRB | 10 µM, 48 h |  | growth percent | 89% |
| CC(Cc1ccc(Cl)cc1)=C(c1ccc(Cl)cc1)c1ccc(OCCN(C)C)cc1 | SF-268 | cell growth or viability, SRB |  |  | GI50 | 5.01 µM |
| CN1CCN(c2ccc(Nc3ncc(Cl)c(Nc4ccccc4NS(=O)(=O)C4CC4)n3)cc2)CC1 | Ba/F3 EGFR C797S | western blot | concentration not given, 12 h |  | EGFR pathway phosphoprotein levels | decreased |
| COc1cc(CNC(=O)C[C@H](C)CCC=C(C)C)ccc1OCc1cn(-c2cccc(C(F)(F)F)c2)nn1 | OVCAR-5 ovarian cancer cells | SRB | 10 µM, 48 h |  | growth percent | 97.5% |
| Cc1noc(NS(=O)(=O)c2ccc(NC(=O)c3cc(-c4ccc5ccccc5c4)nc4ccccc34)cc2)c1C | mouse spleen cells | cell proliferation, inhibitor | dose not given, together with: concanavalin A |  | effective concentration | ~10 µM |
| CC1=CCC23OC2(C)CCC2C(CN(C)C)C(=O)OC2C13.Cl (stereo not shown) | C6 rat glioma cells |  | 20 mg/mL, clonogenic | relative to: control | proliferation reduction | 10.4 fold |
| CC(=O)N[C@H](C(=O)N[C@H](C(=O)N[C@@H](CCCNC(=N)N)C(=O)N1Cc2ccccc2C[C@H]1C(=O)N[C@@H](Cc1ccccc1)C(N)=O)C1CCCCC1)C(C)C | MBP-specific BC-3 T cells | Bio-Plex multiplex, refers to: IL-1ra | 200 µg/mL, 24 h, together with: MBP87-99 antigen |  | cytokine level | 128 ± 31.5 pg/mL |
| CC(C)c1cccc(C(C)C)c1-n1c(Cl)c(Cl)n(-c2c(C(C)C)cccc2C(C)C)c1=[Se].[Cl][Au] | LoVo-OXP colon cancer cells | MTT |  | relative to: LoVo-OXP over LoVo IC50 | resistance factor | 1.2 |
| CCC(=O)N1CCN(c2ccc(NC(=O)c3ccc([N+](=O)[O-])o3)cc2Cl)CC1 | LDR | silenced GFP reporter derepression, microscopy | overnight | relative to: sodium butyrate | Emax | 38% |
| C[C@@H](O)[C@H](NC(=O)[C@@H]1CSSC[C@H](NC(=O)[C@@H](Cc2ccccc2)NC(=O)CN2CCN(CC(=O)O)CCN(CC(=O)O)CCN(CC(=O)O)CC2)C(=O)N[C@@H](Cc2ccc(O)cc2)C(=O)N[C@H](Cc2c[nH]c3ccccc23)C(=O)N[C@@H](CCCCN)C(=O)N[C@@H]([C@@H](C)O)C(=O)N1)C(=O)O | AR-42J | radioligand uptake | concentration not given, 4 h |  | internalized fraction of cell activity | 53.1 ± 1.83% |
| COc1cc(CNC(=O)C[C@H](C)CCC=C(C)C)ccc1OCc1cn(-c2ccc(F)cc2)nn1 | BT-549 breast cancer cells | SRB | 10 µM, 48 h |  | growth percent | 79.7% |
| CC(C)(C)C(=O)Nc1ccc2[nH]c(CN3CCC(N(CCCN4CCOCC4)CC4OC(n5cnc6c(N)ncnc65)C(O)C4O)CC3)nc2c1 (stereo not shown) | H460, H1299, H1975, H446 R231Q cells |  | concentration not given, 7 to 10 days |  | colony formation | inhibited |
| COc1cc(CNC(=O)C[C@H](C)CCC=C(C)C)ccc1OCc1cn(-c2ccc(C#N)cc2)nn1 | SNB-19 CNS cancer cells | SRB | 10 µM, 48 h |  | growth percent | 83.6% |
| Cc1nc(C)c(C=[N+]([O-])C(C)(C)C)nc1C | primary rat midbrain neurons | Western blot, refers to: MEF2D | 30 µM, together with: 20 µM MPP+ |  | increase in protein level | 18.9% |
| COC(=O)[C@@H](Cc1cn(Cc2ccc(Cl)cc2)nn1)NC(=O)OCC1c2ccccc2-c2ccccc21 | AsPC-1 | MTS | 100 µM, 72 h |  | cell growth inhibition | no effect |
| COc1ccc([C@@H]2CC(=O)c3c(O)cc(O[C@@H]4O[C@H](CO[C@@H]5O[C@@H](C)[C@H](O)[C@@H](O)[C@H]5O)[C@@H](O[C@H]5O[C@H](CO)[C@@H](O)[C@H](O)[C@H]5O)[C@H](O)[C@H]4O)cc3O2)cc1O | A549 | Matrigel Transwell invasion | 100 µg/mL, 48 h |  | invasion | 28.8 ± 4.84% |
| O=C(Nc1ccc(C(F)(F)F)cc1Cl)c1cc(Cl)ccc1O | 293 cells expressing AR-V7, HSP70 and Flag-STUB1 | dual immunofluorescence | 1 µM |  | AR-V7 and STUB1 co-localization | increased |

| SMILES | cell line | test | conditions | scale | endpoint | value |
| --- | --- | --- | --- | --- | --- | --- |
| CCOP(=O)(CC(=O)Nc1ccc(S(=O)(=O)N(CC(N)=O)c2ccc(N(CC(N)=O)S(=O)(=O)c3ccc(OC)cc3)c3ccccc23)cc1)OCC | mouse primary cortical neurons | western blot, refers to: phospho-tau | 20 µM, together with: amyloid beta |  | protein level | decreased |
| O=C1c2ccc(O)cc2OC1(O)Cc1ccc(O)c(O)c1 (stereo not shown) | HaCaT over HL-60 | cytotoxicity, MTT | 72 h | relative to: IC50 HaCaT over IC50 HL-60 | selectivity ratio | > 9.41 |
| COc1cc(CNC(=O)C[C@H](C)CCC=C(C)C)ccc1OCc1cn(-c2ccccc2F)nn1 | SNB-19 CNS cancer cells | SRB | 10 µM, 48 h |  | growth percent | 55.7% |
| C=CC1CN(C(=O)NCC=CCSSSCC=CCNC(=O)N2CC(C=C)OC2=S)C(=S)O1 (stereo not shown) | WB-F344 rat liver | hepatocyte damage | 10 µM, together with: D-galactosamine |  | inhibition | 73% |
| Cc1cc(C)n2c1C=C1C=CC(CCC(=O)NCCN(C)C)=[N+]1[B-]2(F)F | Colo-26 | mitochondrial colocalization, imaging flow cytometry | together with: MitoTracker Red | direction not given | bright detail similarity score | 0.6 ± 0.3 |
| Cc1ccc(C(C)C)cc1.O=C(N=P(c1ccccc1)(c1ccccc1)c1ccccc1)c1ccccn1.[Cl-].[Cl][Ru+] | HCC1806 | Annexin V/PI flow cytometry | IC50, 24 h |  | apoptotic cells | 44% |
| CCCCCCCCCCCCCC(=O)N1CCC[C@H]1C(=O)N[C@@H](CO)C(=O)N[C@@H](CCC(N)=O)C(=O)N[C@@H](CO)C(=O)N[C@@H](CCCCNC(=O)c1ccc(Br)cc1)C(=O)N[C@@H](CO)C(=O)N[C@@H](CCCCNC(=O)c1ccc(Br)cc1)C(=O)N[C@@H](C)C(=O)O | AsPC-1 | annexin V/PI staining | 50 µM, 48 h |  | reduction in live cells | 53% |
| CC/C=C\C/C=C\C/C=C\C/C=C\C/C=C\C/C=C\CCC(=O)Nc1ccn(C2OC(CO)C(O)C2(F)F)c(=O)n1 (stereo not shown) | SNB-19 | NCI60 screen |  |  | TGI | 12.4 µM |
| O=Cc1c(O)ccc2ccccc12 | HUVEC | RNA sequencing, refers to: CEBPB | 75 µM, 24 h | relative to: DMSO | log2 fold change | 2.77 |
| C#CCN(CC(=O)O[C@H]1[C@H](C)O[C@@H](O[C@H]2[C@H](N(C)C)[C@@H](O)[C@H](O[C@H]3[C@@H](CC=O)C[C@@H](C)[C@@H](O[C@H]4CC[C@H](N(C)C)[C@@H](C)O4)/C=C/C=C/C[C@@H](C)OC(=O)C[C@@H](O)[C@@H]3OC)O[C@@H]2C)C[C@@]1(C)O)C(=O)c1ccc(C(F)(F)F)cc1 | HGC-27 | Western blot | 0.10, 0.45, 0.90 µM, 24 h |  | cleaved caspase-3 level | increased |
| Brc1cccc(CNc2nc(NCc3ccccc3)c3ccccc3n2)c1 | SW-403 | cell growth or viability | 24 h |  | GI50 | 4.3 µM |
| O=C(O)c1ccc(/C=C2\SC(=S)N(Cc3cccc(C(F)(F)F)c3)C2=O)cc1 | mouse BMDM |  | 10 µM, together with: LPS |  | NLRP3 ubiquitination | no effect |
| CC(=O)O[C@H]1C2=C(C(=O)C(O)=C(C(C)C)C2=O)[C@@]2(C)CCCC(C)(C)[C@@H]2[C@@H]1O | MRC-5 and NCI-H460 | cell growth, MTT |  | relative to: GI50 MRC-5 over NCI-H460 | selectivity index | 3.2 |
| COc1cccc2c1C(=O)c1c(O)c3c(c(O)c1C2=O)CC(O)(C(=O)CO)CC3OC1CC(NC(=O)CCC2=C(C)C(=O)C=C(C(C)C)C2=O)C(O)C(C)O1 (stereo not shown) | Huntington disease fibroblasts |  | 10 µM, 4 h | relative to: free doxorubicin | ROS production | decreased |
| COc1ccc(NC(=O)COc2ccc(/C=C/C(C)=N/O)cc2OC)cc1 | SH-SY5Y | flow cytometry | 2.5 µM, together with: amyloid beta 10 µM |  | IL-6 expressing cells | 48.8% |
| COc1cccc2c(NCc3ccccc3)nc(NCc3cccs3)nc12 | SW-403 | cell growth or viability | 72 h |  | GI50 | 0.35 µM |
| CNC(=N)NC(=N)NCCCCCCNC(=N)NC(=N)NC | NCI-H1299 | TMRM flow cytometry | 1 µM, 48 h, together with: oligomycin 1 µM |  | cells unable to hyperpolarize | ~1% |
